Published values of several laboratories.
Compare with care: the assays were run in different laboratories. ± gives the spread as reported. Converted amounts (≈) assume the structure as drawn.

SMILES | organism | assay | system | conditions | scale | quantity | value
Oc1c(Br)cc(Br)c2nc3c(C(F)(F)F)cc(C(F)(F)F)cc3nc12 | Staphylococcus aureus | Calgary Biofilm Device | MRSA 1707 | biofilm | – | MBC | 1.56 µM (≈ 0.764 µg/mL)
CC1=CC[C@@H]2[C@H](C1)C2(C)C | Mythimna separata | olfactory preference, Y-tube olfactometer | – | males | baseline: liquid paraffin control | choice of control | 70%
Cc1ccccc1C(c1c[nH]c(=O)[nH]c1=O)c1c[nH]c(=O)[nH]c1=O | HIV-1 subtype C | viral replication, item: p24 | – | – | – | IC50 | 152 µg/mL
C=C(C)[C@@H]1CC[C@]2(CNCCN3CCN(Cc4ccccc4)CC3)CC[C@]3(C)[C@H](CC[C@@H]4[C@@]5(C)CC[C@H](OC(=O)CC(C)(C)C(=O)O)C(C)(C)[C@@H]5CC[C@]43C)[C@@H]12 | human immunodeficiency virus 1 | western blot | HEK293T transfected, subtype B NL4-3, virion lysates | 100 nM | baseline: total CA | CA-SP1 accumulation | 70 to 75%
Fc1ccc2c(c1)c1nc3ccc(Br)cc3c-1cn2Cc1cn(-c2ccccc2I)nn1 | Giardia duodenalis | EB/AO staining | – | concentration not given | baseline: untreated | apoptotic cells | increased
CC[C@@H](C)[C@@H](NC(=O)[C@@H](C)NC(=O)[C@@H](CCCCN)NC(=O)[C@@H](CC(C)C)NC(=O)[C@@H](C)NC(=O)[C@H](NC(=O)[C@@H](CCCCN)NC(=O)[C@@H](CC(C)C)NC(=O)[C@H](NC(=O)[C@@H](CCCCN)NC(=O)[C@@H](CCCCN)NC(=O)[C@@H](CCCCN)NC(=O)[C@@H](C)NC(=O)[C@@H](CCCCN)NC(=O)[C@@H](CO)NC(=O)[C@@H](Cc1ccccc1)NC(=O)[C@H](NC(=O)[C@@H](CCCCN)NC(=O)[C@@H](CC(C)C)NC(=O)[C@@H](Cc1ccccc1)NC(=O)[C@@H](CO)NC(=O)[C@@H](CCCCN)NC(=O)[C@@H](Cc1c[nH]c2ccccc12)NC(=O)[C@@H](CCCCN)NC(C)=O)[C@H](C)O)C(C)C)[C@H](C)O)C(=O)N[C@H](CO)C(=O)N[C@H](CCCCN)C(N)=O | Pseudomonas aeruginosa | – | six isolates | – | baseline: HC50 over geometric mean MIC | therapeutic index | 159
COC1C=COC2(C)Oc3c(C)c(O)c4c(c3C2=O)C2=NC3(CCN(CC(C)C)CC3)NC2=C(NC(=O)C(C)=CC=CC(C)C(O)C(C)C(O)C(C)C(OC(=O)c2cccnc2)C1C)C4=O (stereo not shown) | Mycobacteroides abscessus | – | ATCC 19977, non-replicating, caseum surrogate | 120 h | – | MBC90 | 2 µM (≈ 1.82 µg/mL)
Oc1c(Br)ccc2cccnc12 | Shewanella putrefaciens | agar dilution | ATCC 8071 | – | – | MIC | 35.7 µM
C[OH+][Cu-2]12[O]C(c3cn(-c4ccccc4)nc3-c3ccc(F)cc3)=N[N+]1=C(C)c1c(cc(C)oc1=O)[O]2 (stereo not shown) | Plasmodium falciparum | – | 3D7 | 12.5 µg/mL, 72 h | – | parasitaemia suppression | 98%
N#Cc1ccc2cccc(O)c2n1 | Aeromonas hydrophila | microbial growth, agar dilution | – | – | – | MIC | 1500 µM
CC1(C)Cc2sc(NC(=O)Cc3ccc(S(N)(=O)=O)cc3)c(C#N)c2CN1CC1CCCCC1 | dengue virus 2 | viral replication | Huh-7, NGC-Nluc | 48 h | – | EC50 | 5.39 nM
Nc1ncnc2c1c(Br)cn2[C@H]1C[C@H](O)[C@@H](CO)O1 | Trypanosoma vivax | parasite growth, resazurin | – | 24 h | – | EC50 | 4300 nM
COc1ccc(-n2c(=O)c(C(=O)C3C(=O)CCCC3=O)nc3ccccc32)cc1 | Monochoria vaginalis | herbicidal activity, paddy pot test, visual rating | – | 28 days | – | ED90 | 6.3 g a.i./10 a
CC(C)C[C@H](NC(=O)[C@H](C)N)C(=O)N[C@H](Cc1ccccc1)C(=O)NCCC(=O)O | Lolium multiflorum | herbicide | agar | 67 µg/mL, 12 d | – | leaf development | inactive
COc1ccc(Cn2ccc3ccc(C(=O)NO)cc32)cc1 | Lucilia cuprina | pupation | LS strain, larvae on impregnated cotton wool | 216 h | – | IC50 | > 1000 µg
C=C(C)[C@@H]1CC[C@]2(CNCCCN3CCCC3)CC[C@]3(C)[C@H](CC[C@@H]4[C@@]5(C)CC[C@H](OC(=O)CC(C)(C)C(=O)O)C(C)(C)[C@@H]5CC[C@]43C)[C@@H]12 | human immunodeficiency virus 1 | western blot | HEK293T transfected, subtype B NL4-3, virion lysates | 100 nM | baseline: total CA | CA-SP1 accumulation | 70 to 75%
O=c1[nH]cc(C(c2ccc(C(F)(F)F)cc2)c2c[nH]c(=O)[nH]c2=O)c(=O)[nH]1 | HIV-1 subtype C | item: p24 | – | concentration not given | – | antiviral activity | inactive
C=CC1CN(C(=O)NCC=CCSCC=CCNC(=O)N2CC(C=C)OC2=S)C(=S)O1 (stereo not shown) | Enterovirus B | viral replication, inhibitor | B3 | – | – | IC50 | 710 nM
COC1C=COC2(C)Oc3c(C)c(O)c4c(c3C2=O)C2=NC3(CCN(CC(C)C)CC3)NC2=C(NC(=O)C(C)=CC=CC(C)C(O)C(C)C(O)C(C)C(OC(=O)Nc2cnccn2)C1C)C4=O (stereo not shown) | Mycobacteroides abscessus | – | ATCC 19977 | 50% human serum | – | IC50 | 45 nM
CC[C@H](C)[C@@H]1NC(=O)[C@H](CCCNC(=N)N)NC(=O)[C@H](C)NC(=O)[C@H](NC(=O)[C@H](CO)NC(=O)[C@@H](NC(=O)[C@H](NC(=O)[C@@H](CCC(N)=O)NC(=O)[C@H](CO)NC(=O)[C@@H](NC(=O)[C@@H](Cc2ccccc2)NC)[C@@H](C)CC)[C@@H](C)CC)[C@@H](C)CC)[C@H](C)NC1=O | Staphylococcus aureus, Staphylococcus epidermidis, Bacillus subtilis | – | – | together with: 0.002% polysorbate 80 | baseline: without polysorbate | MIC fold decrease | 16 to 128 fold
c1ccc(-c2nc(-c3ccc4ccccc4c3)c[nH]2)cc1 | Schistosoma mansoni | worm killing | mature worms, mixed sexes | 96 h | – | EC50 | > 100000 nM
O=C(Cc1ccc(O)c(O)c1)N(O)Cc1ccc(F)cc1 | Arabidopsis thaliana | – | Col-0, excised stem nodes | 100 µM, together with: NAA 1 µM | baseline: wild type | advancement of bud outgrowth | 3 days
Nc1ncnc2c1c(C(F)(F)F)cn2[C@@H]1O[C@H](CO)[C@@H](O)[C@H]1O | Trypanosoma vivax | parasite growth, resazurin | – | 24 h | – | EC50 | 820 nM
O=C(CCCCCCC(=O)NO)NO | Lucilia cuprina | larval weight gain | LS strain, larvae on impregnated cotton wool | 24 h | – | IC50 | 356 µg
CCOC(=O)C1=C(C)NC2=C(C(=O)CC(C)(C)C2)C1c1ccc(OCC(=O)NN=Cc2cc(Br)c(O)c(Br)c2)cc1OCC(=O)NN=Cc1cc(Br)c(O)c(Br)c1 (stereo not shown) | Listeria monocytogenes | – | NCTC 5348 | concentration not given, 24 h, 37 °C | – | inhibition zone diameter | 11.6 ± 0.6 mm

SMILES | organism | assay | system | conditions | scale | quantity | value
O=[N+]([O-])c1c(Br)c(Cl)c2cccnc2c1O | bacteria | – | – | panel of 19 strains, 5 species | – | MIC50 | 4 µg/mL (≈ 13.2 µM)
Cc1ccc(O)c(C=NNC(=N)NO)n1 | human adenovirus 5 | viral replication | A549, McEwen | 120 µM | – | plaque reduction | 75%
Nc1ccn(C[C@@H](CO)OCP(=O)(O)OCCCS(=O)(=O)CCCCCCCCCCC2CCC2)c(=O)n1 | Betapolyomavirus hominis | qPCR | Gardner | – | baseline: CC50 over EC50 | selectivity index | 34
O=C(CCCCCCNC(=O)c1cnc(N(c2ccccc2)c2ccccc2)nc1)NO | Lucilia cuprina | larval weight gain | LS strain, larvae on impregnated cotton wool | 24 h | – | IC50 | > 1000 µg
CC1(CCCCCCCCCCCCCCOCCCOP(=O)(O)CO[C@H](CO)Cn2ccc(N)nc2=O)COC1 | human adenovirus 5 | cytopathic effect | Adenoid 75 | – | baseline: CC50 over EC50 | selectivity index | 180
O=c1[nH]cc(C(c2ccccc2Cl)c2c[nH]c(=O)[nH]c2=O)c(=O)[nH]1 | HIV-1 subtype C | item: p24 | – | concentration not given | – | antiviral activity | inactive
Nc1ncnc2c1c(F)cn2[C@@H]1O[C@H](CO)C[C@H]1O | Trypanosoma vivax | parasite growth, resazurin | – | 24 h | – | EC50 | 500 nM
CCCCCCCCCC(=O)N[C@@H](Cc1c[nH]c2ccccc12)C(=O)N[C@H](CC(N)=O)C(=O)N[C@@H](CC(=O)O)C(=O)N[C@@H]1C(=O)NCC(=O)N[C@@H](CCCNC(=O)OC2/C=C/CCCCC2)C(=O)N[C@@H](CC(=O)O)C(=O)N[C@H](C)C(=O)N[C@@H](CC(=O)O)C(=O)NCC(=O)N[C@H](CO)C(=O)N[C@@H]([C@H](C)CC(=O)O)C(=O)N[C@@H](CC(=O)c2ccccc2N)C(=O)O[C@@H]1C (stereo partly shown) | Staphylococcus aureus | – | MRSA | concentration not given | baseline: UG gel over TAG gel | activity improvement | 67%
CC(C)C(C(=O)Nc1ccc(C(=O)NO)cc1)c1ccccc1 (stereo not shown) | Lucilia cuprina | larval growth | larvae | – | baseline: cyromazine IC50 over cpd IC50, higher = less potent than reference | potency ratio | ~10 fold
CN1C[C@H](c2cccc(C(F)(F)F)c2)[C@@H](C(=O)Nc2ccccc2F)C1=O | Arabidopsis thaliana | – | seedlings | 5 µM, 24 h | – | dihydroorotate level | 22 ± 4.54 ng/g fresh weight
Nc1ncnc2c1c(I)cn2[C@@H]1O[C@H](CO)C[C@H]1O | Trypanosoma vivax | parasite growth, resazurin | – | 24 h | – | EC50 | 56 nM
Brc1ccc(-c2c[nH]c(-c3ccccn3)n2)cc1 | Schistosoma mansoni | egg laying | worm couples | – | – | lowest concentration reducing egg number | 5 µM
CC1(CCCCCCCCCCCCOCCCOP(=O)(O)CO[C@H](CO)Cn2ccc(N)nc2=O)COC1 | Betapolyomavirus hominis | qPCR | Gardner | – | baseline: CC50 over EC50 | selectivity index | 67
CC(C)C[C@@H]1NC(=O)[C@H](C)N(C)C(=O)CCNC(=O)[C@@H](Cc2ccccc2)NC1=O | Lolium multiflorum | herbicidal activity, germination in agar | – | 67 µg/mL, 12 days | – | leaf development inhibition | 23%
CN(C)c1ccc(C(=O)N[C@@H](CSCCCC(=O)NO)C(=O)NC2CCCc3ccccc32)cc1 (stereo partly shown) | Lucilia cuprina | pupation | LS strain, larvae on impregnated cotton wool | 216 h | – | IC50 | 918 µg
CC(=O)[O-].O.[Cu+2].[O-]c1ccc(Br)cc1C=NCCN1CCOCC1 | Chromobacterium violaceum | – | – | 20 µL of 100 µM per disc | – | inhibition zone diameter | 14 mm
CC(C)(C)OC(=O)Nc1ccc(-c2cc(C(=O)NCCCCCCC(=O)NO)no2)cc1 | Lucilia cuprina | pupation | LS strain, larvae on impregnated cotton wool | 216 h | – | IC50 | > 1000 µg
CNc1cc(C(=O)Nc2ccc(Cl)cc2)ccc1OC | duck hepatitis B virus | viral replication, qPCR | DHBV-infected Pekin ducklings | oral, 50 mg/kg, day 14 | – | serum DHBV DNA | inhibited
C=CCSSC | Bradysia odoriphaga | – | female antennae | 10 µg/µL, 12 h after emergence, after OBP10 RNAi | baseline: dsGFP-injected control | electroantennogram response | decreased
COc1ccc(-c2ccn(CC[C@](C)(C(=O)NO)S(C)(=O)=O)c(=O)c2)c(F)c1 | Enterobacter spp | – | – | – | – | MIC90 | 0.5 µg/mL (≈ 1.21 µM)
O=C(/C=C/c1ccccc1)N[C@@H](CCCCCC(=O)NO)C(=O)Nc1cccc2cccnc12 | Lucilia cuprina | larval weight gain | LS strain, larvae on impregnated cotton wool | 24 h | – | IC50 | 13.9 µg
O=c1c2ccccc2sn1-c1cc(Br)cc(Br)c1 | Aspergillus flavus | growth, broth dilution | ATCC MYA-3631 | MIC-0 | – | MIC | 12.5 µg/mL
CN(C)c1ccc(C(=O)NCCCCCCC(=O)NO)cc1 | Lucilia cuprina | larval weight gain | LS strain, larvae on impregnated cotton wool | 24 h | – | IC50 | 490 µg
C=C(C)[C@@H]1CC[C@]2(CCCNCCN3CCS(=O)(=O)CC3)CC[C@]3(C)[C@H](CC[C@@H]4[C@@]5(C)CC[C@H](OC(=O)CC(C)(C)C(=O)O)C(C)(C)[C@@H]5CC[C@]43C)[C@@H]12 | human immunodeficiency virus 1 | western blot | HEK293T transfected, subtype B NL4-3, virion lysates | 100 nM | baseline: total CA | CA-SP1 accumulation | < 1%
